# Experimental data of several laboratories.
# Each line is one published result; not all experiments were run side by side.
Substance,target or system,assay,setting,endpoint,value
ksi D40V/D103N (Pseudomonas putida),,"UV-vis, measured: Tyr57",25 °C,pKa,8.5
nuc G50F/V51N/P117G/H124L/S128A/del44-49/L38D (Staphylococcus aureus),,"NMR, measured: His121","298 K, KCl 100 mM, numbering of the source",pKa,5.7
"CRYGD (Homo sapiens, UniProt P07320)",,"NMR, measured: His121","25 °C, numbering of the source",pKa,6.2
Trxr-1 del484-491 (Drosophila melanogaster),,"UV-vis, measured: Cys62","NaCl 300 mM, numbering of the source, added: NADPH 250 µM",pKa,5.95
"UGT1A9 (Homo sapiens, UniProt O60656)",COc1ccc(-c2cc(=O)c3ccc(O)cc3o2)cc1,steady-state kinetics,"pH 7.4, 37 °C",Km,3.37 µM
"CISD1 soluble cytoplasmic domain (Homo sapiens, UniProt Q9NZ45)",,"UV-vis, measured: His87","NaCl 100 mM, cluster reduced",pKa,12.4
nuc G50F/V51N/P117G/H124L/S128A/del44-49/E122Q (Staphylococcus aureus),,"NMR, measured: His8","298 K, KCl 100 mM, numbering of the source",pKa,6.5
ksi D40L/F56A (Pseudomonas putida),,"UV-vis, measured: Tyr57",25 °C,pKa,7.5
CRYGD P23T (Homo sapiens),,"NMR, measured: His83","25 °C, numbering of the source",pKa,5.9
ksi D103N (Pseudomonas putida),,"UV-vis, measured: Tyr57",25 °C,pKa,> 10
nuc G50F/V51N/P117G/H124L/S128A/del44-49/L38K (Staphylococcus aureus),,"NMR, measured: His8","298 K, KCl 100 mM, numbering of the source",pKa,6.5
"PRL (Homo sapiens, UniProt P01236)",,"NMR, measured: His27","35 °C, 25 mM NaCl, apparent; independent-site fit, numbering of the source",pKa,6.58
PBP1 mature (Amyelois transitella),,"NMR, measured: His80","25 °C, free protein; not delipidated",pKa,6
ksi D40N/F56A/D103N (Pseudomonas putida),,"UV-vis, measured: Tyr57",25 °C,pKa,7.4
"PCSK1 propeptide domain (Homo sapiens, UniProt P29120)",,"mass spectrometry, measured: His85","apparent, histidine H/D exchange, pepsin digest",pKa,5.85
ksi D40A/D103N (Pseudomonas putida),,"UV-vis, measured: Tyr57",25 °C,pKa,8.3
"WT1 zinc finger 4 (Homo sapiens, UniProt P19544)",,"NMR, measured: His23","288 K, KCl 10 mM, apo, unfolded, reduced, numbering of the source",pKa,6.2
rnpA F107W (Bacillus subtilis),,"NMR, measured: His3","25 °C, 0.50 M NaCl, folded, sulfate-bound, added: sulfate 20 mM",pKa,6.25
"ahpC (Salmonella typhimurium, UniProt P0A251)",,"chemical modification, mass spectrometry, measured: Cys46","ammonium sulfate 100 mM, numbering of the source",pKa,8.55
ksi Y16F/D40R/F56A/D103A (Pseudomonas putida),,"UV-vis, measured: Tyr57",25 °C,pKa,> 10
"ORF56 (Sulfolobus islandicus, UniProt Q54323)",,"NMR, measured: Lys12","free native homodimer, low salt",pKa,10.8
ksi D40N/D103A (Pseudomonas putida),,"UV-vis, measured: Tyr57",25 °C,pKa,6.9
ketosteroid isomerase D40N (Pseudomonas putida),,"UV-vis, measured: Tyr57","apparent, H2O, apo enzyme",pKa,5.78
"proteorhodopsin, retinal (uncultured gamma-proteobacterium EBAC31A08, UniProt Q9F7P4)",,"UV-vis, measured: Asp97","NaCl 100 mM, small DMPC nanodisc, monomeric",pKa,7.1

# Repeated from above:
Substance,target or system,assay,setting,endpoint,value
"WT1 zinc finger 4 (Homo sapiens, UniProt P19544)",,"NMR, measured: His23","288 K, KCl 10 mM, apo, unfolded, reduced, numbering of the source",pKa,6.2
rnpA F107W (Bacillus subtilis),,"NMR, measured: His3","25 °C, 0.50 M NaCl, folded, sulfate-bound, added: sulfate 20 mM",pKa,6.25
"ahpC (Salmonella typhimurium, UniProt P0A251)",,"chemical modification, mass spectrometry, measured: Cys46","ammonium sulfate 100 mM, numbering of the source",pKa,8.55
